Experimental data pooled from the literature.
Every numbered part comes from another study and shows a few of its results, in no order.

Sample 1 — method: universal PBM; molecule type: double-stranded DNA, one strand shown; matrix: in vitro; tested at: 600 nM; reading: higher = stronger binding; measurement: E-score
Target: Sal-like protein 4, full length isoform A (SALL4, Homo sapiens, UniProt Q9UJQ4, residues 1-1053)
Sequence of UniProt Q9UJQ4 (whole entry, looked up): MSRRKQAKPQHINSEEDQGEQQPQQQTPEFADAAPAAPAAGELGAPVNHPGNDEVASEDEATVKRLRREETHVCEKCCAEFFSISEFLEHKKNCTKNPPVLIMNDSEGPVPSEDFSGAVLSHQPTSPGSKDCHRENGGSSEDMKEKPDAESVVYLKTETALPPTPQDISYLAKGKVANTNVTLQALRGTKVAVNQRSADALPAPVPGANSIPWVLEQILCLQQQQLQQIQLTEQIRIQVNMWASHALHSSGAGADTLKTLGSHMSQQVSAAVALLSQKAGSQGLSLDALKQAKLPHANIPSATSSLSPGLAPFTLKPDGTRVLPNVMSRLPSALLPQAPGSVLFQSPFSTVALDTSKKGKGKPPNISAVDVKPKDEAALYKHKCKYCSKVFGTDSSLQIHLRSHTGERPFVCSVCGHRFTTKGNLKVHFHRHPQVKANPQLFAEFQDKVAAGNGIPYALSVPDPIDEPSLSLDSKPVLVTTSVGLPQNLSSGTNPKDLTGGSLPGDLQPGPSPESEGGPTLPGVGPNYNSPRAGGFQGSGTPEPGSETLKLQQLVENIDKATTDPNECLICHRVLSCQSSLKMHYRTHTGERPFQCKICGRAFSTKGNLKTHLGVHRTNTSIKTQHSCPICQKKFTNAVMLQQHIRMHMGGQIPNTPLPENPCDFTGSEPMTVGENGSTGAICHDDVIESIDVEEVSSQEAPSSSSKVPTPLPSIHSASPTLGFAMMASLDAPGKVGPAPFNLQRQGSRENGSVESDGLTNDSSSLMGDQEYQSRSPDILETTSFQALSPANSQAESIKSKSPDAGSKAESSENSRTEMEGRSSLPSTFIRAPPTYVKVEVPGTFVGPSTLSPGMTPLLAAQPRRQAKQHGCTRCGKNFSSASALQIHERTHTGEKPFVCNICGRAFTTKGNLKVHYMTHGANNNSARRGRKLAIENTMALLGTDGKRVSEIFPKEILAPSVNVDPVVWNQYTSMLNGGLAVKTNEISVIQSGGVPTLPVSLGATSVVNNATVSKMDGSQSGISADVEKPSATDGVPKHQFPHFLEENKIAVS
Setting: 8-mer, flanks averaged, mean of replicates
TACCCTAA: 0.0462
CAGTTCAC: 0.0166
AAAGTTGG: 0.0793
ACGTTAGA: 0.16
GCTCGCTA: -0.215
AGTCTCGG: -0.284
AGATTCAC: -0.113
GTCGGCGA: -0.253

Sample 2 — method: protein binding microarray; molecule type: double-stranded DNA, one strand shown; matrix: in vitro; tested at: not given; relative to: not given; reading: higher = stronger binding; measurement: E-score
Target: Histone acetyltransferase KAT6A, winged helix 2, GST fusion (KAT6A, Homo sapiens, UniProt Q92794, residues 85-181)
Setting: 8-mer, flanks averaged, mean of 2 arrays, mostly near background
Residues (chain): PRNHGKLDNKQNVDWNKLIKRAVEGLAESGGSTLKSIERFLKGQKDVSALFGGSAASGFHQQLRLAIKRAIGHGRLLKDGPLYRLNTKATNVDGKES
ACCCTTAG: -0.0418
CCTTTGGA: 0.0669
CGCGAAAG: 0.0343
GCCCGCCC: 0.198
GAGGTGCC: 0.0576

Sample 3 — method: protein-binding microarray; molecule type: double-stranded DNA, one strand shown; matrix: in vitro; tested at: 0.8 µM; setting: whole 60-bp probe, no competitor; reading: higher = stronger binding; measurement: fluorescence intensity; shared flanks, not repeated: … GTCTTGATTCGCTTGACGCTGCTG
Target: Centromere-binding protein 1, full length, N-terminal tag (CBF1, Saccharomyces cerevisiae, UniProt P17106, residues 1-351)
Sequence of UniProt P17106 (whole entry, looked up): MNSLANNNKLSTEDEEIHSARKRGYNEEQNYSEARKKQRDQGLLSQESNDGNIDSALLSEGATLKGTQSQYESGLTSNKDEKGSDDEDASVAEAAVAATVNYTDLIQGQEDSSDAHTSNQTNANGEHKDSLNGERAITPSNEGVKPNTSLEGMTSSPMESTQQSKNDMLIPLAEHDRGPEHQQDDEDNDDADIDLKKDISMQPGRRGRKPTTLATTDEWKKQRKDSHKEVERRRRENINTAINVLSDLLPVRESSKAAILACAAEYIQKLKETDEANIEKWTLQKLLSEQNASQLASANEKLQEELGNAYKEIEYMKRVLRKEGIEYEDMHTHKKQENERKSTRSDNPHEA
GAATAATCCTTTACATGTGAGACACTTTTCCGATAG: 749 a.u.
GAAGATTTGGACAATTACACGAGATCTTTATTATAG: 728 a.u.
CTACCCACATTTTTTCACCTGACTCCGGTCCTGTTC: 831 a.u.
GAAAAGCATATGAGTCACGACGTGACCCTCGAATAG: 1320 a.u.
CTAACATATACCTTACAGGAGATCGGACGTGTGTTC: 495 a.u.
CTATTGACGTTTTAACAGCTGATAACCGCCATTTTC: 556 a.u.

Single results of other studies
PhoQ, residues 284 288 289 292 302 303 SSCCRF — fold induction (PhoP, residues 12 14 15 18 19 TPLRH (Escherichia coli, UniProt P23836); Sort-seq, item: YFP reporter; E. coli; PhoQ-PhoP variant library, together with: 10 µM Mg2+; relative to: high Mg2+ state, higher = stronger signaling): 9.51

Some of these lines once more (sample 1):
ACGTTAGA: 0.16
GTCGGCGA: -0.253
TACCCTAA: 0.0462
